# Experimental data pooled from the literature.
# Numbered parts are unrelated; each lists some results of a single study. Positions count from the first letter of the parent shown.

# Sample 1
# Target: RING finger protein unkempt homolog, zinc fingers 1-6, GST-SBP tag (UNK, Homo sapiens, UniProt Q9C0B0, residues 30-357)
# Method: RNA Bind-n-Seq
# Molecule type: RNA
# Medium: in vitro
# Concentration: not given
# Setting: RNA with constant flanks, human and mouse sites, ends assumed
# Relative to: input RNA pool
# Direction: higher = stronger binding
# Shared flanks, not repeated: GGGAGUUCUACAGUCCGACGAUC … CAACAGAGGAUUGAGCAUCA
# Residues (chain): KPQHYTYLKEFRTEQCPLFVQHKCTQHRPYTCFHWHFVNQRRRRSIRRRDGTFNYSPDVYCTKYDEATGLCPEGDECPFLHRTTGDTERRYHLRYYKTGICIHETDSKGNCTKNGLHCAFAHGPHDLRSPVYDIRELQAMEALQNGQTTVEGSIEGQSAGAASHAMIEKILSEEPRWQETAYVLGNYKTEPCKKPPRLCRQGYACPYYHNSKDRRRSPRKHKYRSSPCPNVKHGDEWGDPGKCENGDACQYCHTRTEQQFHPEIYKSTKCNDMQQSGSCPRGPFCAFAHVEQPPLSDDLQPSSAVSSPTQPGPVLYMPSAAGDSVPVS
Sequence,bound/input enrichment
CGCCGUCUUGGCUUGGCUGCUAAACUUAUGGAGUUACUAGAAGAAAUUUCAGAAAGAAAAGGUGGAUUUUUUGUUGAUCUCUUCGUAAGAGUAUCCAAUCAAGUUGCCGUCAACAUGUAC,0.216 ratio
GAUAUACUUACGUAAUGGAGCUGUCAAAGCCGAGAGACCAGCCUGCGUCCUAAAGUUUGCUUUAGAGAGUAGGAAUGUCGGGGUUUCCAGUUAGAAAACCUUUAUUUUUGGAAACGGAAU,1.46 ratio
CUUAUAGUCUAUGGUAGUUUCAGGUCUCUUAAUAUGGACUUUGAAAACCAAGAUAAGGAGAAAGACAGCAACAGUUCUUCUGGCUCUUUCAAUGGCAACAGCACCAAUAACAGCAUCCAG,0.153 ratio
AGGUGGCAGAGAGGCUGGGGAGUUGCCCAUCGCUGCAGCCAGCUGCACAGUCUCAGCCGCCUAGCACAGCAGAAUCCGGGGCCACUUCAGAAUGUGAAAGGAUGCACGGUUGUAUUCACA,0.185 ratio
GUGCAACAAAAGCCGACGCAGAGGGAAGGAGCAGUCGUCCCCUUGCUUUAUUUGUGUCUUUUGCAGACAUCUUCACAGUGAUGAACGCCUCAGGGAAGAUGUACAUAUCUCUUGUAUAUU,0.0762 ratio
UUCCUCUGCUUGUUUUGAGCCCACCUUGGGGGCUGCUCGUGUAAUGAGAUUUUGAGAAGGUAGCUCUAGCCCAGGUGGGGUCCAGGUUUAGAGUCAGUAGCAGAUGCACCCCACACAAGC,0.449 ratio
AAAGAAAGAAAACCCUCUGUGCACGUUGUCAUGAACUUGCCAGCAAAAGCUAUAGAGUUUCUUAGUGCUUUCAAGUGGCUUUUAGAUGGGCAGCCAUGCAGCAGUGAGUUCCUUCCCAUA,0.231 ratio
CAUUUCUAUAUUUGUACAUUUUCAUUUAUGAGUUCUAUGAUGUGGUCUCUGAAAGACCAAAUAGAUUUCUAUUUCUACUUCUUAUUUUUAAGUUCAUUGUGUCUACAAAUUGUUAAUAUU,0.836 ratio
UAUAGUUGGGAUGAUCAAUGCAGUGCUGUUGAAGUGGGAGAGAAGAAAUGUGGAAACCUGGCUUGUCUGCCAGAUGAGAAGAAUGUUCUUGUUGUAGCCGUCAUGCAUAACUGUGAUAAA,0.501 ratio
GGAGACGUUUGAUGCAAAUGAUUUGUAUCAGGGGCAGAAUUUUAACAAGGUCCUCAGUUCCUUAGUGACUCUAAAUAAAGUAACAGCAGACAUCGGGCUGGGGAGUGACUCCGUGUGUGC,0.249 ratio
AUUUACUUCUGGAACAUAGCCACCAUUGCGGUCUUCUACGCACUUCCUGUGGUGCAGCUGGUGAUCACCUACCAGACGGUGGUGAAUGUCACAGGGAACCAGGACAUCUGCUACUACAAC,0.145 ratio

# Sample 2
# Target: CREM, bZIP domain (human)
# Method: DHFR protein complementation
# Medium: yeast
# Setting: single substitutions, most at no-binding floor
# Relative to: wild-type JUN-FOS pair
# Direction: higher = stronger binding
# Parent: JUN, bZIP domain (human); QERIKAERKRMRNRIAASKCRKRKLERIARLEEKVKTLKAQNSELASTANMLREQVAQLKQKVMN; partner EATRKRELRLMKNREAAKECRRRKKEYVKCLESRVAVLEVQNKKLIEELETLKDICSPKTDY
Substitution,binding fitness [natural log]
T37R,-1.35
L38E,-1.5
L45A,-1.58
K39G,-1.42
Q41D,-1.66
S47I,-1.41
E33R,-1.45
S47N,-1.42
S43A,-1.38
E44I,-1.34
Q41G,-1.56
K34C,-1.61
Q55S,-1.39

# Sample 3
# Target: RNA binding protein fox-1 homolog 2, RRM domain, GST-SBP tag (RBFOX2, Homo sapiens, UniProt O43251-10, residues 100-194)
# Method: RNA Bind-n-Seq
# Molecule type: RNA
# Medium: in vitro
# Concentration: 365 nM
# Setting: natural RNA segment, single round, ends assumed
# Relative to: no-protein control
# Direction: higher = stronger binding
# Shared flanks, not repeated: GGGAGUUCUACAGUCCGACGAUC … UGGAAUUCUCGGGUGCCAA
# Construct (chain): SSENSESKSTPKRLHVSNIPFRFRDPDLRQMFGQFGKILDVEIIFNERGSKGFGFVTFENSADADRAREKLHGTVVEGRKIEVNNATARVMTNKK
Sequence,RBNS enrichment (R)
CUUCUUGGUUAUUUUCAGAUGAACAGUAACUGCUACACUCUUGAAAGCACUUAAAAGUGCAAGCAUGUCCUAAAUAGCCAUUUAACCUGGUAAAACAUAGGCUUUUCUGU,1.08
CCCUACUCAUUAGCUCCCUGCUCCUGGGAUGCUUCCCAAGCAGCCCAGGCCUCUAGCCUCCAUGGCUGAUGACCUCAGCUUUCACACUGGUGAAGUCUGUGUACCCAUAC,0.537
ACAGCUUUUAUUUUCAACUGCUUCCCAACUUGGUGGGGCCUCCUUUAAGGAUGAGCCAAUAGUAAGAAUGUGGCUGUAAUCAGCAGAGACCCCUCUGAGGGGUAUCUGUU,0.32
GAUUUUUAGUUAAAAAUCAUGUAGUCUAAUAUGCUGCAGUUAUUUUUUUAUAUUUUUCAAUGCAUUUAAUUAUCUUUUUUAUAAUUCUUUGUACUAACUCAGCAUGUAAC,2.83
GCUGAGUUCAGGAUGCCUGCGUGUGGUUUAGGUGUUAGCCUUCUUACAUGGAUGUCAGGAGAGCUGCUGCCCUCUUGGCGUGAGUUGCGUAUUCAGGCUGCUUUUGCUGC,0.236
GAGAGGAGCAGUUCAGUUUACAAAACAAGUGCAAAUUACCAAACUCAAAGCUUAUUUGAGUAGAAUGGGCUCAUGGGCAAUGUGAUGUUCCCUGUUAACCUUCUGUUACU,0.508
CUGCAUCUUGAUCCUCCUGUACGCCAUGUACAAGUACAGGAACAGGGACGAGGGGUCCUAUCAAGUGGACGAGACGCGGAACUACAUCAGCAACUCCGCCCAGAGCAACG,0.578
UAGUUAGAUUUCACCUGCAUAUACAUUUUUCCAUUUUAUGCUCUAUGAUCUGAACAAAAGCUUUUUGAAUUGUAUAAGAUUUAUGUCUACUGUAAACAUUGCUUAAUUUU,0.477
UAUUUGUGUGUGUGUUCUACCUUUCUACCAUAUGUCAUCAGUUUAAUGGUAACUUUAUUUAUUUAAAAACAAAGAAACACAAAUAGUUACUAUUAAACUGAUUAAGGCUG,0.463
UCUUAGGCCCUCAGGUCCCCAUAGCACUGGGAGGGGGCGCUGGGGACCAUGUGCCCAGGGACUGCAGCCAGGUUCACUCUGCUGGGAGAGCUGGCUGGGGGGAAGGGCUU,0.772
GGAAAAUCCCAUUUUAUAGAUAGAGGUGCAAUCACAUAAAAAUGUGGCCAGGCAGGAUUAAAGGUAUUCUAAAUCCUUACCACGGGGCAUUUUCUGGAUGCAAAGGCACU,0.366
AAAGAAUGGGUAUACGCAGUGACUUCCGAUGGAAAUCUCCAAAACAAUAUUCCUAAGUAGCAAUGGGGUUGGCUCAAGUCUUUAUUAACAAAGAACAUUCUCUUUCAUCU,0.635

# Sample 4
# Target: CCNF, cyclin fold, Cln2 fusion (human)
# Method: yeast growth competition, sequencing
# Medium: yeast
# Setting: strong parent motif
# Relative to: not given
# Direction: higher = stronger binding
# Parent: GMNC docking peptide (human); KNAKRNLSSEFAN; partner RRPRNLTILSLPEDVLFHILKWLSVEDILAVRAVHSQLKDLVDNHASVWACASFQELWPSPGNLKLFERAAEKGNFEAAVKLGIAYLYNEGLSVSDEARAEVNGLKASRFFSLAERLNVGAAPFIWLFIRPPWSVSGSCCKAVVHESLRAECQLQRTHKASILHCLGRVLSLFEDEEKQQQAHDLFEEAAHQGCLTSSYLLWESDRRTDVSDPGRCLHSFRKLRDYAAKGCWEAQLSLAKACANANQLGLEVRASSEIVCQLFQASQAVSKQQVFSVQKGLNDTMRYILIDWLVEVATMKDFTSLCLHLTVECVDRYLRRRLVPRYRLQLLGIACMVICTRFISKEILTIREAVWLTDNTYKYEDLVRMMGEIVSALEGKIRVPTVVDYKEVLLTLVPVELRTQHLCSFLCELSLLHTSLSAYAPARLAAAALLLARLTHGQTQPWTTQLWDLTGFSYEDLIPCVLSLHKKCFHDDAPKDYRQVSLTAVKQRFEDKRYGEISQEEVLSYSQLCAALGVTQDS
Substitution,normalised enrichment score
N6P,0.136
F11N,-0.323
N2P,0.218
L7D,0.271
N2G,0.478
A3K,0.732
K4Y,0.473
N2M,0.506
A3W,0.767
N2Y,0.673
R5N,0.353
S9A,0.883
R5E,0.473
S8E,1.28
N2A,0.56
E10Q,0.972
N6M,0.212
K4S,-0.0809
A12P,0.624
E10M,0.811
A3L,0.102
R5M,0.0868
S9V,1.13
N6I,0.223
N2L,0.796

# Repeated from above (sample 1):
Sequence,bound/input enrichment
GAUAUACUUACGUAAUGGAGCUGUCAAAGCCGAGAGACCAGCCUGCGUCCUAAAGUUUGCUUUAGAGAGUAGGAAUGUCGGGGUUUCCAGUUAGAAAACCUUUAUUUUUGGAAACGGAAU,1.46 ratio
CUUAUAGUCUAUGGUAGUUUCAGGUCUCUUAAUAUGGACUUUGAAAACCAAGAUAAGGAGAAAGACAGCAACAGUUCUUCUGGCUCUUUCAAUGGCAACAGCACCAAUAACAGCAUCCAG,0.153 ratio
AGGUGGCAGAGAGGCUGGGGAGUUGCCCAUCGCUGCAGCCAGCUGCACAGUCUCAGCCGCCUAGCACAGCAGAAUCCGGGGCCACUUCAGAAUGUGAAAGGAUGCACGGUUGUAUUCACA,0.185 ratio
GUGCAACAAAAGCCGACGCAGAGGGAAGGAGCAGUCGUCCCCUUGCUUUAUUUGUGUCUUUUGCAGACAUCUUCACAGUGAUGAACGCCUCAGGGAAGAUGUACAUAUCUCUUGUAUAUU,0.0762 ratio
UUCCUCUGCUUGUUUUGAGCCCACCUUGGGGGCUGCUCGUGUAAUGAGAUUUUGAGAAGGUAGCUCUAGCCCAGGUGGGGUCCAGGUUUAGAGUCAGUAGCAGAUGCACCCCACACAAGC,0.449 ratio
AAAGAAAGAAAACCCUCUGUGCACGUUGUCAUGAACUUGCCAGCAAAAGCUAUAGAGUUUCUUAGUGCUUUCAAGUGGCUUUUAGAUGGGCAGCCAUGCAGCAGUGAGUUCCUUCCCAUA,0.231 ratio
CAUUUCUAUAUUUGUACAUUUUCAUUUAUGAGUUCUAUGAUGUGGUCUCUGAAAGACCAAAUAGAUUUCUAUUUCUACUUCUUAUUUUUAAGUUCAUUGUGUCUACAAAUUGUUAAUAUU,0.836 ratio
UAUAGUUGGGAUGAUCAAUGCAGUGCUGUUGAAGUGGGAGAGAAGAAAUGUGGAAACCUGGCUUGUCUGCCAGAUGAGAAGAAUGUUCUUGUUGUAGCCGUCAUGCAUAACUGUGAUAAA,0.501 ratio
GGAGACGUUUGAUGCAAAUGAUUUGUAUCAGGGGCAGAAUUUUAACAAGGUCCUCAGUUCCUUAGUGACUCUAAAUAAAGUAACAGCAGACAUCGGGCUGGGGAGUGACUCCGUGUGUGC,0.249 ratio
